Measurements collected from several papers.
Each line is one published result; not all experiments were run side by side. ± marks the error that the study gave.

CCCC[C@H](NC(=O)[C@@H](NC(=O)[C@H](CC(=O)O)NC(=O)[C@H](CCC(N)=O)NC(=O)[C@H](CC(C)C)NC(=O)[C@H](CC(C)C)NC(=O)[C@H](CCCN)NC(=O)[C@H](CCCNC(=N)N)NC(=O)[C@H](C)NC(=O)[C@H](CO)NC(=O)[C@H](CC(C)C)NC(=O)[C@H](CCC(N)=O)NC(=O)[C@H](CC)NC(=O)[C@H](CC(C)C)NC(=O)[C@@H](NC(=O)[C@H](CCCN)NC(=O)[C@H](CCCNC(=N)N)NC(=O)[C@H](Cc1ccc(O)cc1)NC(=O)[C@H](CO)NC(=O)[C@H](CCC(N)=O)NC(=O)[C@@H](NC(=O)[C@H](Cc1ccccc1)NC(=O)[C@@H](NC(=O)[C@H](C)NC(=O)[C@H](CC(=O)O)NC(=O)[C@@H](C)NC(=O)[C@H](Cc1ccc(O)cc1)NC)[C@@H](C)CC)[C@@H](C)O)C(C)C)[C@@H](C)CC)C(=O)N[C@@H](CC(=O)O)C(=O)N[C@@H](CCCNC(=N)N)C(=O)NC  relative potency (GH release; rat, male, serum; intravenous, 1 µg/kg, 5 min; reference: reference GHRH agonist JI-38): 1.19
O=C1/C(=C/c2ccccc2)Oc2cc(O)c3c(oc4cc(O)c(O)cc43)c21  EC50 (ABTS scavenging, absorbance): 2.78 mM
CC(=N)N(C)c1ccc(C(=O)Nc2ccc(C)cc2C(=O)Nc2ccc(Cl)cn2)cc1  concentration doubling prothrombin time (human plasma): 0.08 ± 0.02 µM
COc1ccc(C2CC(c3ccc(C)cc3)=Nc3ccccc3S2)cc1 (centres unmarked)  total cholesterol (Wistar rat, STZ-induced diabetes, serum; 20 mg/kg, 28 days): 133 mg/dL
CC(CCC(=O)NCc1ccc(C(=O)NO)cc1)C1CCC2C3C(O)CC4CC(O)CCC4(C)C3CCC12C (centres unmarked)  hepatic cystic area (CK19 histology; PCK rats, liver; dose not given; reference: untreated): decreased
CCCC[C@H](NC(=O)[C@@H](NC(=O)[C@H](CC(=O)O)NC(=O)[C@H](CCC(N)=O)NC(=O)[C@H](CC(C)C)NC(=O)[C@H](CC(C)C)NC(=O)[C@H](CCCN)NC(=O)[C@H](CCCNC(=N)N)NC(=O)[C@H](C)NC(=O)[C@H](CO)NC(=O)[C@H](CC(C)C)NC(=O)[C@H](CCC(N)=O)NC(=O)[C@H](CC)NC(=O)[C@H](CC(C)C)NC(=O)[C@@H](NC(=O)[C@H](CCCN)NC(=O)[C@H](CCCNC(=N)N)NC(=O)[C@H](Cc1ccc(O)cc1)NC(=O)[C@H](CO)NC(=O)[C@H](CCC(N)=O)NC(=O)[C@@H](NC(=O)[C@H](Cc1ccccc1)NC(=O)[C@@H](NC(=O)[C@H](C)NC(=O)[C@H](CC(=O)O)NC(=O)[C@@H](C)NC(=O)[C@H](Cc1ccc(O)cc1)N(C)C(C)=O)[C@@H](C)CC)[C@@H](C)O)C(C)C)[C@@H](C)CC)C(=O)N[C@@H](CC(=O)O)C(=O)NCCCCNC(=N)N  relative potency (GH release; male rat, serum; subcutaneous, dose not given, 30 min; reference: GHRH(1-29)NH2): 33.6
Cc1ccc([C@@H]2O[C@H](CO)[C@@H](O)[C@H](O)[C@H]2O)cc1Cc1ccc(-c2ccc(F)cc2)s1  serum ALT activity (rabbit, STZ-nicotinamide type 2 diabetes, serum; dose not given, 28 days): 84.2 ± 2.02 U/L
COc1ccc2c(c1OC)C(C(Cl)(Cl)Cl)N1CCc3cc4c(cc3C1=C2)OCO4 (centres unmarked)  total cholesterol (rat, STZ-induced diabetic, serum; oral, 12 mg/kg, day 28): 85.1 ± 4.01 mg/dL
CCCC[C@H](NC(=O)[C@@H](NC(=O)[C@H](CC(=O)O)NC(=O)[C@H](CCC(N)=O)NC(=O)[C@H](CC(C)C)NC(=O)[C@H](CC(C)C)NC(=O)[C@H](CCCN)NC(=O)[C@H](CCCNC(=N)N)NC(=O)[C@H](C)NC(=O)[C@H](CO)NC(=O)[C@H](CC(C)C)NC(=O)[C@H](CCC(N)=O)NC(=O)[C@H](CC)NC(=O)[C@H](CC(C)C)NC(=O)[C@@H](NC(=O)[C@H](CCCN)NC(=O)[C@H](CCCNC(=N)N)NC(=O)[C@H](Cc1ccc(O)cc1)NC(=O)[C@H](CO)NC(=O)[C@H](CCC(N)=O)NC(=O)[C@@H](NC(=O)[C@H](Cc1ccccc1)NC(=O)[C@@H](NC(=O)[C@H](C)NC(=O)[C@H](CC(=O)O)NC(=O)[C@H](C)NC(=O)CCc1ccc(O)cc1)[C@@H](C)CC)[C@@H](C)O)C(C)C)[C@@H](C)CC)C(=O)N[C@@H](CC(=O)O)C(=O)N[C@@H](CCCNC(=N)N)C(=O)NCCCCC(N)=O  relative potency (GH release; male rat, serum; subcutaneous, dose not given, 15 min; reference: GHRH(1-29)NH2): 73.5
N=C(N)NCCC[C@H](N)C(=O)N1CCC[C@H]1C(=O)NCC(=O)NCC(=O)O  activation energy (diketopiperazine formation, Arrhenius plot, ESI-MS; 1-propanol; 70, 80, 90 °C, 0.5% acetic acid): 99 ± 8 kJ/mol
C[C@H](NC(=O)COC(=O)[C@H](C)NC(=O)CO)C(=O)O  depolymerization rate constant (water; pH 2, 50 °C): 0.009 h⁻¹
CC(C)(C)c1ccc(-c2nnc(S)o2)cc1  IC50 (nitric oxide scavenging): 94.4 ± 2.2 µM
CCCCCCCCCC(=O)NCCCC[C@H](NC(=O)[C@H](CC(C)C)NC(=O)[C@H](CCCCN)NC(=O)[C@H](CCCCNC(=O)[C@H](CC(C)C)NC(=O)[C@H](CCN)NC(=O)[C@H](CCCCNC(=O)[C@H](Cc1ccccc1)NC(=O)[C@@H](N)CCCN)NC(=O)[C@H](Cc1ccccc1)NC(=O)[C@@H](N)CCCN)NC(=O)[C@H](CC(C)C)NC(=O)[C@H](CCN)NC(=O)[C@H](CCCCNC(=O)[C@H](Cc1ccccc1)NC(=O)[C@@H](N)CCCN)NC(=O)[C@H](Cc1ccccc1)NC(=O)[C@@H](N)CCCN)C(N)=O  leakage (carboxyfluorescein release; EYPC vesicles; 10 µg/mL, 250 s, pH 7.4, 25 °C; reference: Triton X-100): 1%
COc1ccc2c(c1)c(CC(=O)OCC(=O)c1ccccc1)c(C)n2C(=O)c1ccc(Cl)cc1  latency of nociceptive response (hot plate test; BALB/c mice; 75 mg/kg, 60 min): 14.7 ± 1.11 s
C[C@@H](O)[C@@H]1NC(=O)[C@H](CCCCN)NC(=O)[C@@H](Cc2ccc(NC(N)=O)cc2)NC(=O)[C@H](Cc2ccc(NC(=O)[C@@H]3CC(=O)NC(=O)N3)cc2)NC(=O)[C@H](NC(=O)[C@H](Cc2ccc(Cl)cc2)NC(=O)CN2CCN(CC(=O)O)CCN(CC(=O)O)CCN(CC(=O)O)CC2)CSSC[C@@H](C(=O)N[C@H](Cc2ccc(O)cc2)C(N)=O)NC1=O [gallium-68 labelled]  SUVmax (PET/CT; human neuroendocrine tumour patients, lung lesions; 60 min): 17
CCCC[C@H](NC(=O)[C@@H](NC(=O)[C@H](CC(=O)O)NC(=O)[C@H](CCC(N)=O)NC(=O)[C@H](CC(C)C)NC(=O)[C@H](CC(C)C)NC(=O)[C@H](CCCN)NC(=O)[C@H](CCCNC(=N)N)NC(=O)[C@H](C)NC(=O)[C@H](CO)NC(=O)[C@H](CC(C)C)NC(=O)[C@H](CCC(N)=O)NC(=O)[C@H](CC)NC(=O)[C@H](CC(C)C)NC(=O)[C@@H](NC(=O)[C@H](CCCN)NC(=O)[C@H](CCCNC(=N)N)NC(=O)[C@H](Cc1ccc(O)cc1)NC(=O)[C@H](CO)NC(=O)[C@H](CCC(N)=O)NC(=O)[C@@H](NC(=O)[C@H](Cc1ccccc1)NC(=O)[C@@H](NC(=O)[C@H](C)NC(=O)[C@H](CC(=O)O)NC(=O)[C@@H](C)NC(=O)[C@H](Cc1ccc(O)cc1)NC)[C@@H](C)CC)[C@@H](C)O)C(C)C)[C@@H](C)CC)C(=O)N[C@@H](CC(=O)O)C(=O)NCCCCNC(=N)N  relative potency (GH release; rat, male, serum; subcutaneous, 3 µg/kg, 30 min; reference: reference GHRH agonist JI-38): 1.2
COc1cc2c(cc1OC)CC(=O)N(C[C@H]1CCCN(CCOc3ccc(F)cc3)C1)CC2  burst firing (VTA dopamine neurons; CSDS-susceptible male mice; intraperitoneal, 10 mg/kg; reference: baseline): decreased
O=C1/C(=C/c2ccc(O)cc2)Oc2cc(O)c(-c3ccc(O)c(O)c3)c(O)c21  EC50 (ABTS scavenging, absorbance): 1.18 mM
CCCC[C@H](NC(=O)[C@@H](NC(=O)[C@H](CC(=O)O)NC(=O)[C@H](CCC(N)=O)NC(=O)[C@H](CC(C)C)NC(=O)[C@H](CC(C)C)NC(=O)[C@H](CCCN)NC(=O)[C@H](CCCNC(=N)N)NC(=O)[C@H](C)NC(=O)[C@H](CO)NC(=O)[C@H](CC(C)C)NC(=O)[C@H](CCC(N)=O)NC(=O)[C@H](CC)NC(=O)[C@H](CC(C)C)NC(=O)[C@@H](NC(=O)[C@H](CCCN)NC(=O)[C@H](CCCNC(=N)N)NC(=O)[C@H](Cc1ccc(O)cc1)NC(=O)[C@H](CO)NC(=O)[C@H](CCC(N)=O)NC(=O)[C@@H](NC(=O)[C@H](Cc1ccccc1)NC(=O)[C@@H](NC(=O)[C@H](C)NC(=O)[C@H](CC(=O)O)NC(=O)[C@@H](C)NC(=O)[C@H](Cc1ccc(O)cc1)NC)[C@@H](C)CC)[C@@H](C)O)C(C)C)[C@@H](C)CC)C(=O)N[C@@H](CC(=O)O)C(=O)N[C@@H](CCCNC(=N)N)C(=O)NCC  relative potency (GH release; male rat, serum; subcutaneous, dose not given, 30 min; reference: GHRH(1-29)NH2): 108
COC1OC(C)C(OC2OC(C)C(OS(=O)(=O)O)C(OC3OC(C)C(OC4OC(C)C(OS(=O)(=O)O)C(OC5OC(C)C(OC6OC(C)C(OS(=O)(=O)O)C(OC7OC(C)C(OS(=O)(=O)O)C(OS(=O)(=O)O)C7OS(=O)(=O)O)C6OS(=O)(=O)O)C(OS(=O)(=O)O)C5OS(=O)(=O)O)C4OS(=O)(=O)O)C(OS(=O)(=O)O)C3OS(=O)(=O)O)C2OS(=O)(=O)O)C(OS(=O)(=O)O)C1OS(=O)(=O)O (centres unmarked)  concentration doubling APTT (clotting time; human plasma): 12.9 µg/mL

For quick reference, copied from above:
N=C(N)NCCC[C@H](N)C(=O)N1CCC[C@H]1C(=O)NCC(=O)NCC(=O)O  activation energy (diketopiperazine formation, Arrhenius plot, ESI-MS; 1-propanol; 70, 80, 90 °C, 0.5% acetic acid): 99 ± 8 kJ/mol
C[C@H](NC(=O)COC(=O)[C@H](C)NC(=O)CO)C(=O)O  depolymerization rate constant (water; pH 2, 50 °C): 0.009 h⁻¹
CC(C)(C)c1ccc(-c2nnc(S)o2)cc1  IC50 (nitric oxide scavenging): 94.4 ± 2.2 µM
